Published values of several laboratories.
Every numbered part comes from another study and shows a few of its results, in no order. Positions count from the first letter of the parent shown.

Study 1 — method: protein-binding microarray; form: double-stranded DNA, one strand shown; matrix: in vitro; tested at: 0.8 µM; notes: whole 60-bp probe, no competitor; reading: higher = stronger binding; constant ends, left off below: … GTCTTGATTCGCTTGACGCTGCTG
Target: Centromere-binding protein 1, full length, N-terminal tag (CBF1, Saccharomyces cerevisiae, UniProt P17106, residues 1-351)
UniProt P17106, sequence (whole entry, looked up): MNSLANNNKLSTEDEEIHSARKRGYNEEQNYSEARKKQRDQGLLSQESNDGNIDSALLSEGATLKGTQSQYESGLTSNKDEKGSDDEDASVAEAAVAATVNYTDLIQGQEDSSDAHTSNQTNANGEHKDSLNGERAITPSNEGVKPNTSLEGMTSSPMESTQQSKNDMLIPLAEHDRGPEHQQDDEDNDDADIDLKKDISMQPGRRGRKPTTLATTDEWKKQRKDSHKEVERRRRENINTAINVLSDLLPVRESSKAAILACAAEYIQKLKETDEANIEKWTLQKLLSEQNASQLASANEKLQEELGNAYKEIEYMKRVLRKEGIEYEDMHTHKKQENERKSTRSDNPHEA
| Sequence | fluorescence intensity [a.u.] |
| --- | --- |
| GAACGTGCGACGACTCATGTGTGTTAGATTGGGTAG | 562 |
| CTATACAGCACAAATCACGCGTATTTTCAAGCATTC | 812 |
| GAATGATATAGTGGTCACCAGAACACTTTCAAATAG | 642 |
| CTATAAAGACAAAGGCATGTGAGAAAAGTAAGTTTC | 593 |
| GAAAGACATACTCTGTTCGTGATGTTTCTGCATTAG | 539 |
| GAACGCGTTCCGTGACACGTTAAAGGATAATAGTAG | 936 |

Study 2 — target: CCNE2, cyclin fold, Cln2 fusion (human); method: yeast growth competition, sequencing; matrix: yeast; notes: strong parent motif; relative to: not given; reading: higher = stronger binding
Starting sequence: E2F1 docking peptide (human); PPVKRRLDLETDH; partner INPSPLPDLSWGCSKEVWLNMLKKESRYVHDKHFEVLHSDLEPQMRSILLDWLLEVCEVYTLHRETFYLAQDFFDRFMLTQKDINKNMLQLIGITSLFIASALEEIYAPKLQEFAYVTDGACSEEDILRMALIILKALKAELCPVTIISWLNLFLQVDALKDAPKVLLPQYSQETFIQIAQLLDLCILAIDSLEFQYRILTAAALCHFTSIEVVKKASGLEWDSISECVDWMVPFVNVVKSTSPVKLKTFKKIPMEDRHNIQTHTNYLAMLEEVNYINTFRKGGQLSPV
| Variant | normalised enrichment score |
| --- | --- |
| K4R | 1.87 |
| K4A | 0.932 |
| E10C | 1.82 |
| D8I | 1.92 |
| D12R | 1.62 |
| T11D | 0.798 |

Study 3 — method: DHFR PCA, dose-response; matrix: yeast; notes: Hill fit, mean, not affinity; added: (+)-ABA, dose series; reading: lower = more sensitive
Target: ABI1, truncated, D143A, DHFR fusion (Arabidopsis thaliana, UniProt P49597)
Starting sequence: PYL1, truncated, DHFR fusion (Arabidopsis thaliana, UniProt Q8VZS8); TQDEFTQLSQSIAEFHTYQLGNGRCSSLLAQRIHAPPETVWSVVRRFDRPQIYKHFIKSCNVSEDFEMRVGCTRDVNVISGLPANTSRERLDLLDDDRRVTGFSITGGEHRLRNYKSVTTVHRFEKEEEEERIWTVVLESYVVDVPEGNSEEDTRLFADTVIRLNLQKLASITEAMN
| Variant | ABA EC50 [µM] |
| --- | --- |
| R123T | 2.01 |
| E109Q | 2.87 |
| Q51W | 52.6 |
| L93A | 13.5 |

Single results of other studies
| Substance | target | test | system | conditions | scale | quantity | result |
| --- | --- | --- | --- | --- | --- | --- | --- |
| PhoQ, residues 284 288 289 292 302 303 TNSAEL | PhoP, residues 12 14 15 18 19 NMSFL (Escherichia coli, UniProt P23836) | Sort-seq, measured: YFP reporter | E. coli | PhoQ-PhoP variant library, added: 10 µM Mg2+ | relative to: high Mg2+ state, higher = stronger signaling | fold induction | 11.7 |

Excerpt of the above (study 1):
| Sequence | fluorescence intensity [a.u.] |
| --- | --- |
| CTATACAGCACAAATCACGCGTATTTTCAAGCATTC | 812 |
| GAATGATATAGTGGTCACCAGAACACTTTCAAATAG | 642 |
